Assay results gathered from unrelated publications.
Numbered parts are unrelated; each lists some results of a single study.

Block 1
Target: Phosphate system positive regulatory protein PHO4, full length, GST-tagged (PHO4, Saccharomyces cerevisiae, UniProt P07270, residues 1-312)
Technique: competition protein-binding microarray
Form: double-stranded DNA, one strand shown
Medium: in vitro
Tested at: 2 µM
Setting: whole 60-bp probe, lowest competitor level
With: Cbf1 competitor, 0.05 µM
Reading: higher = stronger binding
All sequences stand within: … GTCTTGATTCGCTTGACGCTGCTG
Target sequence (chain): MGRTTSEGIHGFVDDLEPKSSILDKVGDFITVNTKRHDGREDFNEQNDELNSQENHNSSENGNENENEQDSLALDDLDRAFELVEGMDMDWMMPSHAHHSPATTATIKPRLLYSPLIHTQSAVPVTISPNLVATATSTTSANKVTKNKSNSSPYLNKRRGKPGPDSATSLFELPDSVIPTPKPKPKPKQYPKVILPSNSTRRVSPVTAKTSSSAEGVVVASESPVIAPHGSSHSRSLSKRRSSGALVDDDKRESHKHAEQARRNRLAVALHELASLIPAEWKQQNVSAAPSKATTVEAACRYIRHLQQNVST
Strand | fluorescence intensity
TTTAGGGCTACTTGGAATGTGATATCATTCTTACAA | 3920 a.u.
GTCTTGTCTCATTGTCACGAGACTTTCCCCACTTCA | 6380 a.u.
GTCTTGTCTCATTGTCACCCAACTTTCCCCACTTCA | 4130 a.u.
ACAACTGCGGGGACGCATGTGCTCTAAAGAAAGCAG | 13500 a.u.
CGGGGTTAAGTTTGTGATGTGGGTGGCTTGCAGCAG | 4850 a.u.
TGCAAGAAAAAATAGGTCGTGACAAATTCGCCCCTA | 5440 a.u.
CATACCCAACCTTTTCACGTGATATAAGATATTTGT | 12600 a.u.
CTTTCCCGATCTTTTCACGTGTAGTTAGCACATTTG | 12900 a.u.
CAGTCTGATTGCCATCACGTGATGGTAACGTAAGTC | 13400 a.u.
AAATTACTAAGTTGTCACATGACTTACCCCGTATGA | 6410 a.u.
AGGATCGTTGGTGCTCTCGTGATGGTTCGGTGGCGG | 5340 a.u.
CCCTCAAGTTTCTCTTCTGGCGATTTGGGAATTTAC | 3210 a.u.
TAAACGAGTACTTCACACGTAGGCCAAAGCACTCCA | 4820 a.u.
GTCAATGCAGTCATCCTCGTGAAATCTGGAATGAAT | 6700 a.u.
GCTTGCCGCGAACCTCTCGTGCGATGCCAAAGTGGT | 7170 a.u.
AATAAATACGAGCATCACAATACCCCAAGAGGAGAA | 3630 a.u.
ATTTCTTTTCCAATTCACGGGTCAATTTGGTTTGGA | 4740 a.u.
CTTCAGTTTTTTCACCACGTGAAGAGAATATGGATA | 16500 a.u.
GAAATGGTAGTTACACGCGTGAAATCAGGGTCTTAA | 6570 a.u.

Block 2
Target: Interferon regulatory factor 7, full length, phosphomimetic (IRF7, Homo sapiens, UniProt Q92985, residues 1-503, S101K/S471D/S472D/S475D/S476D/S477D/S483D/S484D/S487D)
Chain of UniProt Q92985 (whole entry, unmodified, looked up): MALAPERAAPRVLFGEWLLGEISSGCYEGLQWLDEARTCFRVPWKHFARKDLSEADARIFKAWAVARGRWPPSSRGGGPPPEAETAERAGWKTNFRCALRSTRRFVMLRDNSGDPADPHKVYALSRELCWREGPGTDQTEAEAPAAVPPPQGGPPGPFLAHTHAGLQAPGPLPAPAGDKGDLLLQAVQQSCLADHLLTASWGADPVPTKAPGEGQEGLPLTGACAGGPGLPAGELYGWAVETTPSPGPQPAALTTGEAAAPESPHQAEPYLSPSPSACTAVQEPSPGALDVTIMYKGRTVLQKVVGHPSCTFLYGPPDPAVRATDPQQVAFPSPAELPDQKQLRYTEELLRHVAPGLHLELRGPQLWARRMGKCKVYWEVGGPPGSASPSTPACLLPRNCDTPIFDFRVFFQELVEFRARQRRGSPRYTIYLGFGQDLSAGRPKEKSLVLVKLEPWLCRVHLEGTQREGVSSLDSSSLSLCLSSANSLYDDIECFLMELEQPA
Technique: protein-binding microarray
Form: double-stranded DNA, one strand shown
Medium: in vitro
Tested at: 250 nM
Setting: 60-bp whole probe
With: salmon DNA 0.4 mg/ml
Baseline: random background probes
Reading: higher = stronger binding
All sequences stand within: GCCTAGCAC … GTCTTGATTCGCTTGACGCTGCTG
Strand | log fluorescence
TCATCTCTCAAAAGTCACACTGTGCTA | 0.684 z-score
GACGGACTGCTACTGCTGATGTGCTAG | -0.756 z-score
TTAGTTTTCGACACTGGGTTAGTGCTA | 0.908 z-score
GAATGATTACATATATGTTGGTGCTAG | 0.147 z-score
GACGGTCTCCTTCTTCTGACGTGCTAG | 0.163 z-score
TTAGATATCGGGACTGGGTTAGTGCTA | -0.0744 z-score
GACGGGCTCCTTTTCCTGACGTGCTAG | 0.795 z-score
GACGATCTCAGCCTCGAGACGTGCTAG | 0.0313 z-score
TTAGGTCTCTTTTTCCTTTAGTGCTAG | 2.46 z-score
GACGATATCGGATATCGAGACGTGCTA | 0.282 z-score
TTAGGTATCGGACTGGGTCAGTGCTAG | 0.0615 z-score
TTAGGTTTCCTAGTGCTTTAGTGCTAG | 1.41 z-score
GACGATCTCAATATCGAGACGTGCTAG | 0.192 z-score
GGCGATTTCAGTTCCGAGACGTGCTAG | -0.0593 z-score
TTAGAACTGGGGACTGGATGAGTGCTA | -0.725 z-score
TCATCCATGGGTATGGCACTGTGCTAG | 0.305 z-score
GACGAACTGAGTATCGAGAGGTGCTAG | -0.143 z-score
GGAAGTCCCATGTTGCAGACTGTGCTA | 0.546 z-score
TTAGGACTGGGAATCGGTTAGTGCTAG | 0.48 z-score

Block 3
Target: RNA binding protein fox-1 homolog 2, RRM domain, GST-SBP tag (RBFOX2, Homo sapiens, UniProt O43251-10, residues 100-194)
Technique: RNA Bind-n-Seq
Form: RNA
Medium: in vitro
Tested at: 365 nM
Setting: natural RNA segment, single round, ends assumed
Baseline: no-protein control
Reading: higher = stronger binding
All sequences stand within: GGGAGUUCUACAGUCCGACGAUC … UGGAAUUCUCGGGUGCCAA
Strand | RBNS enrichment (R)
AGGCAUUAAAAAUGCAUACCAUGCUUUCAGAACAAAAGCUCUGGGCCAGAAAGGCAAUUUGGCUAAAAAAUGAAUAAGACUACUUCUAAUGUAACUAAGCAUCUCCACUA | 0.532
CCUAGGGGAGGGGAGAUAAGAAACCCUCACUCUCUACAGGUUUGGGUACAAGUGGCAACCUGCUUCCAUGGCCGUGUAGAAGCAUGGUGCCCUGGCUUCUCUGAGGAAGC | 0.398
CUCCCCAGCCACCCCCAUCUGGCAGCUGAUCUCCAAAGUCCUGGCCCGUCACUUCAGUGUAGCAGAUGCCAGCAGGGUCCUGGAACAACUACAGAGGGAUUAUGACAGGU | 0.506
AGAGGUACCGACUUGUUCCCUAUGGAAAUCAUUCCUAUCUGGAGUCUCUGACAGACAAAUCUAAGGAGUUGCCGUUAUACUGUUCUGGGGGUUUGCGGUUUUUCUGGGAC | 0.408
CACAUAGAUGCAUAGGAUGGAGUUCCCUGAGGAAAACAGCACUUGAGCAUGGUGAGGAGUAGCCAGGGUGAAUUUCACAACAUUUGUACUAGAUUUAGAUGCUCAAGAAU | 0.895
AUCAUCAUACUCUAGAAUCUUGUCUGUCACUCACUACAUGAAUAAGCAAAUAUUGUCUUCAAAAGAAUGCACAAGAACCACAAUUAAGAUGUCAUAUUAUUUUGAAAGUA | 0.476
CUACCCACCUCAGCCUCCUGUGUAGCUGGGAUUAUAGAUUGGAGCCACCAUGCCCAGCUCAGAGGGUUGUUCUCCUAGACUGACCCUGAUCAGUCUAAGAUGGGUGGGGA | 0.366
AGGCGACGGUGGCCCCAGGAUGGGGAGCAGGCCUCUGCUGCCUGUUCCCUCUGCCCUUUCUCUGGCUUCCUCUGCUCCUCCUCAUCCCUGCAGGCAAAGGAAACCCUCUG | 0.382

Block 4
Target: Histone acetyltransferase KAT6A, winged helix 1, GST fusion (KAT6A, Homo sapiens, UniProt Q92794, residues 1-85)
Technique: protein binding microarray
Form: double-stranded DNA, one strand shown
Medium: in vitro
Tested at: not given
Setting: 8-mer, flanks averaged, mean of 2 arrays, mostly near background
Baseline: not given
Reading: higher = stronger binding
Residues (chain): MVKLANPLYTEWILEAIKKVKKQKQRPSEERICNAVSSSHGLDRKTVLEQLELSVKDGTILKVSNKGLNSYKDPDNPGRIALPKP
Strand | E-score
ACAAAGCC | 0.0508
CCATCTTA | -0.0654
CTCTCAGC | -0.0792
ATTAGCCA | -0.215
CAGGTTAG | -0.0679
ATCCTCGG | -0.0262
CCGGGTAC | 0.314
ACAGCGGA | 0.076
ACTATATG | -0.128
CAGCGACA | -0.0532
ACGATCCT | -0.207
ATCCGGGG | 0.101
GACGCTGA | 0.0931
ACACATGT | 0.0177
GAAGCCGA | 0.194
ATGAACTA | -0.136
CTAGTTTA | 0.0532
CTTGCAAG | -0.103
ATGGGGTG | -0.0322
ATTTCGCC | -0.0643
CAAAAAAG | -0.104
AGGACGCG | 0.264
CTAATAAA | -0.044

A few entries again (block 4):
Strand | E-score
ACTATATG | -0.128
CAGCGACA | -0.0532
ACGATCCT | -0.207
ATCCGGGG | 0.101
